Results of several laboratories.
Lines come from different studies, so protocols differ. Numbers after ± are the reported error.

Compound	target or system	assay	test system	setting	scale	quantity	result
Cc1ccc(NS(=O)(=O)c2cccc(C(=O)NC3CCN(c4ncnc5[nH]cnc45)CC3)c2)cc1	SARS-CoV-2	–	A549-ACE2, Wuhan-Hu-1	2.469 µM	baseline: untreated	relative infection	76.8%
CC(=O)c1ccc(S(=O)(=O)NC(=O)NC2CCCCC2)cc1	SARS-CoV-2	viral replication	Huh-7	–	–	IC50	> 2 µM
COc1ccc(C[C@@H]2c3cc(Oc4cc(C[C@@H]5c6cc(O)c(OC)cc6CCN5C)ccc4O)c(OC)cc3CCN2C)cc1	SARS-CoV-2	viral replication	Vero E6	1.562 µM	–	CPE inhibition	0%
COc1ccc(Nc2cc(C(=O)NCCCN3CCN(c4ccccc4F)CC3)c3ccccc3n2)c(OC)c1	SARS-CoV-2	cytopathic effect	USA_WA1/2020	round 2, 5-point	–	maximum response	42.8%
Cc1ccccc1NC(=N)Nc1ccccc1C	SARS-CoV-2	viral replication, anti-nucleoprotein immunostaining	Vero E6	–	–	IC50	> 10 µM
CCN(CCO)CCCC(C)Nc1ccnc2cc(Cl)ccc12 (single isomer, unassigned)	SARS-CoV-2	viral replication, GFP plate reader screen	BetaCov/Belgium/GHB-03021/2020	cell-based	–	EC50	12.7 µM
COc1ccc(Nc2nc(Nc3ccc(OC)cc3OC)nc(N3CCOCC3)n2)c(OC)c1	SARS-CoV-2	cytopathic effect	USA_WA1/2020	–	–	AC50	5.01 µM
c1ccc(CN(CCN(Cc2ccccn2)Cc2ccccn2)Cc2ccccn2)nc1	SARS-CoV-2	viral replication, high-content imaging screen	BetaCov/Belgium/GHB-03021/2020	cell-based	–	EC50	> 100 µM
C=CC[N+]1([C@H]2C[C@H]3[C@@H]4CC[C@H]5C[C@H](O)[C@@H](N6CCOCC6)C[C@]5(C)[C@H]4CC[C@]3(C)[C@H]2OC(C)=O)CCCC1	SARS-CoV-2	viral replication	Huh-7	–	–	IC50	> 2 µM
COc1ccc2c(c1)CCC(c1ccccc1)=C2c1ccc(OCCN2CCCC2)cc1	SARS-CoV-2	viral replication, high-content imaging screen	–	cell-based	–	EC50	> 100 µM
O=C(O[C@@H]1Cc2c(O)cc(O)cc2O[C@@H]1c1cc(O)c(O)c(O)c1)c1cc(O)c(O)c(O)c1	SARS-CoV-2	viral replication	Vero E6	50 µM	–	CPE inhibition	90%
CC(C)CC(=O)N[C@H](C(=O)N[C@H](C(=O)N[C@@H](CC(C)C)[C@@H](O)CC(=O)N[C@@H](C)C(=O)N[C@@H](CC(C)C)[C@@H](O)CC(=O)O)C(C)C)C(C)C	SARS-CoV-2	–	Vero E6	concentration not given, NYC laboratory	–	viral replication inhibition	inactive
Nc1ncnc2c([C@@H]3N[C@H](CO)[C@@H](O)[C@H]3O)c[nH]c12	Zaire ebolavirus	antibody staining	HeLa, Kikwit	50 µM	–	antigen-positive cells	0.06%
CC1(C)NC(=O)N(c2ccc([N+](=O)[O-])c(C(F)(F)F)c2)C1=O	SARS-CoV-2	viral replication	Huh-7	–	–	IC50	> 2 µM
Cc1nn(-c2ccc(Cl)cc2)c2c1C(c1ccc(I)cc1)C(C#N)=C(N)O2 (stereo not shown)	SARS-CoV-2	–	Vero	10 µM	–	viral titre	442000 IU/mL
CN(C)C(=O)COC(=O)Cc1ccc(OC(=O)c2ccc(NC(=N)N)cc2)cc1	SARS-CoV-2	–	–	concentration not given, Paris laboratory	–	viral replication inhibition	inactive
CC1CCN(CCCC(=O)c2ccc(F)cc2)CC1	SARS-CoV-2	viral replication	A549 expressing ACE2	inactive set pIC50 4	–	IC50	> 10 µM
N#C[C@@]1(n2ccc(N)nc2=O)O[C@H](CO)[C@@H](O)[C@H]1O	SARS-CoV-2	viral replication, qRT-PCR of viral RNA	Caco-2, Washington	–	–	EC90	0.6 ± 0.02 µM
CN(C)CCOC(C)(c1ccccc1)c1ccccn1 (stereo not shown)	SARS-CoV-2	viral replication, RT-qPCR	A549 expressing ACE2	–	–	IC50	> 10 µM
Cc1noc2c(NC3CCOCC3)cc(-c3cccc(C(F)(F)F)c3)nc12	SARS-CoV-2	cytopathic effect	USA_WA1/2020	retest, 8-point, duplicates	–	maximum response	17.3%
CNCCC=C1c2ccccc2C=Cc2ccccc21	SARS-CoV-2	viral replication, high-content imaging screen	BetaCov/Belgium/GHB-03021/2020	cell-based	–	EC50	> 50.1 µM
COc1cc(C2C(C#N)=C(N)Oc3c2c(C)nn3-c2ccc(Cl)cc2)cc(OC)c1OC (stereo not shown)	SARS-CoV-2	RT-qPCR, item: viral RNA	Vero	1 µM	higher means less virus	Ct value	23.3 cycles
CCCOc1ccc(C(=O)CCN2CCCCC2)cc1	SARS-CoV-2	viral replication, GFP plate reader screen	–	cell-based	–	EC50	> 100 µM

Compound	target or system	assay	test system	setting	scale	quantity	result
Cc1nn(-c2ccc(Cl)cc2)c2c1C(c1ccc(Cl)cc1Cl)C(C#N)=C(N)O2 (stereo not shown)	SARS-CoV-2	–	Vero C1008	10 µM	baseline: positive control	viral titre log reduction	0.485 log10
Cc1ccc2nc(Cl)c3cc(C(=O)NCCCN4CCC(C)CC4)sc3c2c1	SARS-CoV-2	cytopathic effect, cell-based CPE	USA_WA1/2020	–	–	AC50	11.2 µM
CC(C)(C)[C@H](NC(=O)C(F)(F)F)C(=O)N1C[C@H]2[C@@H]([C@H]1C(=O)N[C@H](C#N)C[C@@H]1CCNC1=O)C2(C)C	SARS-CoV-2	viral replication	Vero E6	0.3333 µM	–	inhibition	109%
CC(C)CCCCCCCCC[C@@H]1CC(=O)N[C@@H](CCC(=O)O)C(=O)N[C@@H](CC(C)C)C(=O)N[C@H](CC(C)C)C(=O)N[C@@H](C(C)C)C(=O)N[C@@H](CC(=O)O)C(=O)N[C@H](CC(C)C)C(=O)N[C@@H](CC(C)C)C(=O)O1	SARS-CoV-2	–	Vero	–	baseline: CC50 over IC50	selectivity index	1
C#C[C@]1(O)CC[C@H]2[C@@H]3CCc4cc(OC5CCCC5)ccc4[C@H]3CC[C@@]21C	SARS-CoV-2	viral replication	Huh-7	–	–	IC50	> 2 µM
CN1CCCC(CC2c3ccccc3Sc3ccccc32)C1 (stereo not shown)	SARS-CoV-2	viral replication, GFP plate reader screen	–	cell-based	–	EC50	9.55 µM
Cc1nn(-c2ccc(Cl)cc2)c2c1C(c1ccc(Cl)cc1)C(C#N)=C(N)O2 (stereo not shown)	SARS-CoV-2	–	Vero	10 µM	–	viral titre	325000 IU/mL
O=C(NCCN1CCCCC1)c1ccc(-c2ccc(N3CCSCC3)nc2)cc1	SARS-CoV-2	cytopathic effect	USA_WA1/2020	round 2, 5-point	–	maximum response	52.7%
CN(C)CCC(c1ccc(Cl)cc1)c1ccccn1 (stereo not shown)	SARS-CoV-2	viral replication, RT-qPCR	A549 expressing ACE2	–	–	IC50	> 10 µM
COc1ccc(Nc2cc(C(=O)NCCCN3CCN(c4ccc(OC)cc4)CC3)c3ccccc3n2)cc1	SARS-CoV-2	cytopathic effect, cell-based CPE	USA_WA1/2020	round 2, 5-point dilution	–	AC50	12.6 µM
CC(C)=CCc1c(O)ccc(C(=O)/C=C/c2ccc(O)cc2)c1O	SARS-CoV-2	viral replication	Vero E6	1.562 µM	–	CPE inhibition	0%
CC(C)(C)[C@H](NC(=O)C(F)(F)F)C(=O)N1C[C@H]2[C@@H]([C@H]1C(=O)N[C@H](C#N)C[C@@H]1CCNC1=O)C2(C)C	SARS-CoV-2	viral replication	Delta strain	48 h	–	EC90	0.0329 ± 0.0029 µM
COc1cccc(-c2ccc(CN3CCCC(c4nc5ccc(C)cc5c(=O)[nH]4)C3)cc2)c1 (stereo not shown)	SARS-CoV-2	cytopathic effect	USA_WA1/2020	retest, 8-point, duplicates	–	efficacy	45.4%
Cc1cccc(/C=N/Nc2cc(N3CCOCC3)nc(OCCc3ccccn3)n2)c1	SARS-CoV-2	viral replication, inhibitor	Vero E6, USA-WA1/2020	24 h	–	EC90	0.048 µM
CCCCN(CCCC)CCCOc1ccc(C(=O)c2c(CC)cc3ccccn23)cc1	SARS-CoV-2	viral replication, high-content imaging screen	–	cell-based	–	EC50	> 100 µM
CC[C@H](C)[C@H](NC(=O)[C@H](CC(C)C)NC(=O)[C@H](Cc1c[nH]c2ccccc12)NC(=O)[C@H](CCC(N)=O)NC(=O)[C@@H](NC(=O)[C@H](Cc1ccccc1)NC(=O)[C@H](C)NC(=O)[C@H](CCCCNC(=O)COCCOCCNC(=O)COCCOCCNC(=O)CC[C@H](NC(=O)CCCCCCCCCCCCCCCCCCC(=O)O)C(=O)O)NC(=O)[C@H](CCC(N)=O)NC(=O)[C@H](C)NC(=O)[C@@H](NC(=O)[C@H](CCCCN)NC(=O)[C@H](CC(=O)O)NC(=O)[C@H](CC(C)C)NC(=O)C(C)(C)NC(=O)[C@@H](NC(=O)[C@H](CO)NC(=O)[C@H](Cc1ccc(O)cc1)NC(=O)[C@H](CC(=O)O)NC(=O)[C@H](CO)NC(=O)[C@@H](NC(=O)[C@H](Cc1ccccc1)NC(=O)[C@@H](NC(=O)CNC(=O)[C@H](CCC(=O)O)NC(=O)C(C)(C)NC(=O)[C@@H](N)Cc1ccc(O)cc1)[C@@H](C)O)[C@@H](C)O)[C@@H](C)CC)[C@@H](C)CC)C(C)C)C(=O)N[C@@H](C)C(=O)NCC(=O)NCC(=O)N1CCC[C@H]1C(=O)N[C@@H](CO)C(=O)N[C@@H](CO)C(=O)NCC(=O)N[C@@H](C)C(=O)N1CCC[C@H]1C(=O)N1CCC[C@H]1C(=O)N1CCC[C@H]1C(=O)N[C@@H](CO)C(N)=O	–	–	patients with type 2 diabetes, serum	5 mg, day 29, proof of concept study	–	lipase	51.1 ± 17.5 U/L
COc1ccc2c(c1)c(CC(=O)O)c(C)n2C(=O)c1ccc(Cl)cc1	SARS-CoV-2	–	–	concentration not given, Paris laboratory	–	viral replication inhibition	inactive
CCCC(=O)N(C)Cc1c(-c2ccc(Cl)cc2)nc2ccccn12	SARS-CoV-2	viral replication	Vero E6, USA-WA1/2020	2.5 µM	–	inhibition	43.5%
O=C(/C=C/c1ccc(O)c(O)c1/C=C/c1ccc(O)c(O)c1)O[C@H](Cc1ccc(O)c(O)c1)C(=O)O	SARS-CoV-2	viral replication	Vero E6	0.7812 µM	–	CPE inhibition	0%
COc1ccccc1-c1cccc(CN2CCCC(C(=O)NCc3ccc(F)cc3)C2)c1 (stereo not shown)	SARS-CoV-2	cytopathic effect	USA_WA1/2020	round 1, 5-point	–	maximum response	62.1%
Cc1[nH]c(/C=C2\C(=O)Nc3ccccc32)c(C)c1CCC(=O)O	SARS-CoV-2	viral replication, GFP plate reader screen	–	cell-based	–	EC50	1.78 µM
CC(C)n1nc(-c2ccc3oc(N)nc3c2)c2c(N)ncnc21	SARS-CoV-2	–	–	concentration not given, Paris laboratory	–	viral replication inhibition	inactive
CCC(CC)COC(=O)[C@H](C)N[P@](=O)(OC[C@H]1O[C@@](C#N)(c2ccc3c(N)ncnn23)[C@H](O)[C@@H]1O)Oc1ccccc1	SARS-CoV-2	viral replication	Huh-7-ACE2, USA-WA1/2020	–	–	EC90	0.0063 µM

Excerpt of the above:
Compound	target or system	assay	test system	setting	scale	quantity	result
CC(C)CCCCCCCCC[C@@H]1CC(=O)N[C@@H](CCC(=O)O)C(=O)N[C@@H](CC(C)C)C(=O)N[C@H](CC(C)C)C(=O)N[C@@H](C(C)C)C(=O)N[C@@H](CC(=O)O)C(=O)N[C@H](CC(C)C)C(=O)N[C@@H](CC(C)C)C(=O)O1	SARS-CoV-2	–	Vero	–	baseline: CC50 over IC50	selectivity index	1
C#C[C@]1(O)CC[C@H]2[C@@H]3CCc4cc(OC5CCCC5)ccc4[C@H]3CC[C@@]21C	SARS-CoV-2	viral replication	Huh-7	–	–	IC50	> 2 µM
CN1CCCC(CC2c3ccccc3Sc3ccccc32)C1 (stereo not shown)	SARS-CoV-2	viral replication, GFP plate reader screen	–	cell-based	–	EC50	9.55 µM
Cc1nn(-c2ccc(Cl)cc2)c2c1C(c1ccc(Cl)cc1)C(C#N)=C(N)O2 (stereo not shown)	SARS-CoV-2	–	Vero	10 µM	–	viral titre	325000 IU/mL
O=C(NCCN1CCCCC1)c1ccc(-c2ccc(N3CCSCC3)nc2)cc1	SARS-CoV-2	cytopathic effect	USA_WA1/2020	round 2, 5-point	–	maximum response	52.7%
CN(C)CCC(c1ccc(Cl)cc1)c1ccccn1 (stereo not shown)	SARS-CoV-2	viral replication, RT-qPCR	A549 expressing ACE2	–	–	IC50	> 10 µM
COc1ccc(Nc2cc(C(=O)NCCCN3CCN(c4ccc(OC)cc4)CC3)c3ccccc3n2)cc1	SARS-CoV-2	cytopathic effect, cell-based CPE	USA_WA1/2020	round 2, 5-point dilution	–	AC50	12.6 µM
